{"data": "Literature values as cited in several papers", "note": "Lines come from different studies, so protocols differ. “And” joins repeats or separate records; there may be more than shown. ± gives the spread as reported."}
{"SMILES": "C=C[C@@H]1C[C@]1(NC(=O)[C@@H]1C[C@@H](Oc2ncc(OC)c3cc(Cl)ccc23)CN1C(=O)[C@@H](NC(=O)OC(C)(C)C)C(C)(C)C)C(=O)NS(=O)(=O)C1CC1", "organism": "hepatitis C virus", "test": "replicon replication", "test system": "genotype 1b", "EC50": "10 nM"}
{"SMILES": "CC1(C)N=C(N)N=C(N)N1c1cccc(C(F)(F)F)c1", "organism": "respiratory syncytial virus", "test": "viral replication", "EC50": "~8 nM"}
{"SMILES": "Nc1c(C(=O)NCc2ccc(F)cc2F)c(=O)n(O)c2ncccc12", "organism": "HIV-1", "test": "viral replication, lentiviral vector", "test system": "wild-type integrase", "EC50": "~1 nM and 1.1 nM"}
{"SMILES": "O=C(NCc1ccc(F)cc1F)c1cn2ccn(CCCCCCO)c(=O)c2c(O)c1=O", "organism": "human immunodeficiency virus 1", "test": "single-round vector infection", "test system": "wild-type integrase", "EC50": "4.8 ± 0.9 nM"}
{"SMILES": "O=[N+]([O-])c1ccc(-c2nc3cc4cccnc4c(Cl)c3[nH]2)cc1", "organism": "hepatitis C virus", "test": "viral replication", "EC50": "3100 nM"}
{"SMILES": "C=CC1CC1(NC(=O)C1CC(Oc2nccc3cc(OC)ccc23)CN1C(=O)C(NC(=O)OC(C)(C)C)C(C)(C)C)C(=O)O (stereo not drawn)", "organism": "hepatitis C virus", "test": "replicon replication", "test system": "genotype 1b", "EC50": "2000 nM"}
{"SMILES": "Cc1cc(O)c(=O)c(O)cc1C(=O)c1ccc(-c2ccccc2)cc1", "organism": "herpes simplex virus 2", "test": "viral replication", "EC50": "80 nM"}
{"SMILES": "C=C[C@@H]1C[C@]1(NC(=O)[C@@H]1C[C@@H](Oc2cc(-c3ccccc3)nc3cc(OC)ccc23)CN1C(=O)[C@@H](NC(=O)OC(C)(C)C)C(C)(C)C)C(=O)NS(=O)(=O)C1(C)CC1", "organism": "hepatitis C virus", "test": "replicon replication", "test system": "genotype 1b", "EC50": "8 nM"}
{"SMILES": "O=c1cc(Cc2ccc(-c3ccccc3)cc2)c2cccnc2n1O", "organism": "HIV-1 HXB2", "test": "viral replication", "test system": "HeLa P4-2", "EC50": "34000 nM"}
{"SMILES": "CC1(C)O[C@H](COP2(=O)OCc3ccccc3O2)[C@H](C(=O)NO)O1 (stereo partly drawn)", "organism": "Trypanosoma brucei", "test": "parasite growth", "EC50": "inactive"}
{"SMILES": "CSCC[C@H](N)C(=O)N1CCC[C@H]1C(=O)Nc1ccc([N+](=O)[O-])cc1", "organism": "dengue virus 2", "test": "viral replication", "EC50": "38700 ± 5400 nM"}
{"SMILES": "CC1(C)N=C(N)N=C(N)N1c1ccc(Cl)c(Cl)c1", "organism": "respiratory syncytial virus", "test": "viral replication", "EC50": "~8 nM"}
{"SMILES": "CCCCCCCCCCCCCCCCSSCCOP(=O)(O)CO[C@H](C)Cn1cnc2c(N)ncnc21", "organism": "HIV-1", "test": "viral replication", "EC50": "0.5 nM"}
{"SMILES": "CC(C)N1CCn2cc(C(=O)NCc3ccc(F)cc3F)c(=O)c(O)c2C1=O", "organism": "human immunodeficiency virus 1", "test": "single-round vector infection", "test system": "wild-type integrase", "EC50": "3 ± 0.1 nM"}
{"SMILES": "COc1cc(/C=C2\\CCC/C(=C\\c3ccc(O)c(OC)c3)C2=O)ccc1O", "organism": "dengue virus", "test": "plaque", "EC50": "2340 ± 210 nM"}
{"SMILES": "COCCCCCCn1ccn2cc(C(=O)NCc3ccc(F)cc3F)c(=O)c(O)c2c1=O", "organism": "human immunodeficiency virus 1", "test": "single-round vector infection", "test system": "wild-type integrase", "EC50": "4.8 ± 0.2 nM"}
{"SMILES": "O=C1C=C(c2ccc(C(F)(F)F)cc2)S(=O)(=O)c2ccc(F)cc21", "organism": "Leishmania panamensis", "test system": "MHOM/CO/87/UA140-EGFP", "conditions": "intracellular amastigotes", "EC50": "3000 nM"}
{"SMILES": "COCCn1ccn2cc(C(=O)NCc3ccc(F)cc3F)c(=O)c(O)c2c1=O", "organism": "human immunodeficiency virus 1", "test": "single-round vector infection", "test system": "wild-type integrase", "EC50": "1.9 ± 0.4 nM"}
{"SMILES": "C=C[C@@H]1C[C@]1(NC(=O)[C@@H]1C[C@@H](Oc2cc(-c3ccccc3)nc3cc(OC)ccc23)CN1C(=O)[C@@H](NC(=O)OC(C)(C)C)C(C)(C)C)C(=O)NS(=O)(=O)C1CC1", "organism": "hepatitis C virus", "test": "replicon replication", "test system": "genotype 1b", "EC50": "4 nM"}
{"SMILES": "O=C(NCc1ccc(F)cc1F)c1cn2ccn(CCCCO)c(=O)c2c(O)c1=O", "organism": "human immunodeficiency virus 1", "test": "single-round vector infection", "test system": "wild-type integrase", "EC50": "16.6 ± 2 nM"}
{"SMILES": "CC(C)(C)n1ncc(C(=O)N/N=C/c2ccc(F)cc2)c1N", "organism": "tobacco mosaic virus", "test": "curative activity", "test system": "plant", "EC50": "139 µg/mL"}
{"SMILES": "Cn1ccn2cc(C(=O)NCc3ccc(F)cc3F)c(=O)c(O)c2c1=O", "organism": "human immunodeficiency virus 1", "test": "single-round vector infection", "test system": "wild-type integrase", "EC50": "2.7 ± 0.2 nM"}
{"SMILES": "C=C[C@@H]1C[C@]1(NC(=O)[C@@H]1C[C@@H](Oc2ncc(OC)c3c(Cl)cccc23)CN1C(=O)[C@@H](NC(=O)OC(C)(C)C)C(C)(C)C)C(=O)NS(=O)(=O)C1CC1", "organism": "hepatitis C virus", "test": "replicon replication", "test system": "genotype 1b", "EC50": "9 nM"}
{"SMILES": "CN1CCn2cc(C(=O)NCc3ccc(F)cc3F)c(=O)c(O)c2C1=O", "organism": "human immunodeficiency virus 1", "test": "single-round vector infection", "test system": "wild-type integrase", "EC50": "4.6 ± 0.7 nM"}
{"SMILES": "COC(=O)N[C@H](C(=O)N1CCC[C@H]1c1ncc(-c2ccc(-c3ccc(-c4cnc([C@@H]5CC6(CN5C(=O)[C@@H](NC(=O)OC)C(C)C)OCCO6)[nH]4)cc3)cc2)[nH]1)C(C)C", "organism": "hepatitis C virus", "test": "replicon", "test system": "genotype 1a", "EC50": "0.01 nM"}
{"SMILES": "O=C(NCc1ccc(F)cc1F)c1cn2ccn(CCCCCO)c(=O)c2c(O)c1=O", "organism": "human immunodeficiency virus 1", "test": "single-round vector infection", "test system": "wild-type integrase", "EC50": "10.8 ± 1.7 nM"}
{"SMILES": "Cc1cc(N2CC[C@@](C#N)(C3(C)CC3)C2=O)cc(C(=O)NCc2cc(F)cc(-c3cnn(C)c3)c2)n1", "organism": "Toxoplasma gondii", "test system": "PRS T477A mutant", "EC50": "186 nM"}
{"note": "Excerpt of the above:"}
{"SMILES": "COCCCCCCn1ccn2cc(C(=O)NCc3ccc(F)cc3F)c(=O)c(O)c2c1=O", "organism": "human immunodeficiency virus 1", "test": "single-round vector infection", "test system": "wild-type integrase", "EC50": "4.8 ± 0.2 nM"}
{"SMILES": "O=C1C=C(c2ccc(C(F)(F)F)cc2)S(=O)(=O)c2ccc(F)cc21", "organism": "Leishmania panamensis", "test system": "MHOM/CO/87/UA140-EGFP", "conditions": "intracellular amastigotes", "EC50": "3000 nM"}
{"SMILES": "COCCn1ccn2cc(C(=O)NCc3ccc(F)cc3F)c(=O)c(O)c2c1=O", "organism": "human immunodeficiency virus 1", "test": "single-round vector infection", "test system": "wild-type integrase", "EC50": "1.9 ± 0.4 nM"}
{"SMILES": "C=C[C@@H]1C[C@]1(NC(=O)[C@@H]1C[C@@H](Oc2cc(-c3ccccc3)nc3cc(OC)ccc23)CN1C(=O)[C@@H](NC(=O)OC(C)(C)C)C(C)(C)C)C(=O)NS(=O)(=O)C1CC1", "organism": "hepatitis C virus", "test": "replicon replication", "test system": "genotype 1b", "EC50": "4 nM"}
